Results collected from several papers.
Every numbered part comes from another study and shows a few of its results, in no order.

Sample 1
Target: Histone acetyltransferase KAT6A, winged helix 2, GST fusion (KAT6A, Homo sapiens, UniProt Q92794, residues 85-181)
Method: protein binding microarray
Form: double-stranded DNA, one strand shown
Medium: in vitro
Tested at: not given
Setting: 8-mer, flanks averaged, mean of 2 arrays, mostly near background
Relative to: not given
Reading: higher = stronger binding
Target sequence (chain): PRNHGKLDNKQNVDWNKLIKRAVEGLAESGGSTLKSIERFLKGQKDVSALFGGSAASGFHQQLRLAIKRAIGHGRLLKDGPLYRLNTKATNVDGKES
For `TAATACTA`, the E-score was 0.0844.
For `AAACCTTA`, the E-score was 0.0168.
`AGTTCGAC` gave an E-score of 0.0379.
`CCCTGGGA` has an E-score of 0.107.

Sample 2
Target: Sox, HMG box (Pigoraptor chileana)
Method: Spec-seq
Form: double-stranded DNA, one strand shown
Medium: in vitro
Tested at: not given
Setting: whole probe, mean of replicates
Relative to: not given
Reading: lower = stronger binding
All sequences stand within: GAGTCGTCTCGTCAGCAC … CCGTAGAGCACTCAGGTC
Target sequence (chain): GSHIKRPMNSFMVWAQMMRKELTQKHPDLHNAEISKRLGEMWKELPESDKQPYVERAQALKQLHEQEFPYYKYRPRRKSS
`CATGCGA` — result for “relative binding energy”: 0.672 ln ratio.
For `CATAGTC`, “relative binding energy” read -0.661 ln ratio.
`ACCCGTT`: “relative binding energy” -0.111 ln ratio.
`TTGGGTT` — result for “relative binding energy”: 0.603 ln ratio.
For `CATTCTG`, “relative binding energy” read -0.0944 ln ratio.

Sample 3
Target: Interferon regulatory factor 7, full length, phosphomimetic (IRF7, Homo sapiens, UniProt Q92985, residues 1-503, S101K/S471D/S472D/S475D/S476D/S477D/S483D/S484D/S487D)
Chain of UniProt Q92985 (whole entry, unmodified, looked up): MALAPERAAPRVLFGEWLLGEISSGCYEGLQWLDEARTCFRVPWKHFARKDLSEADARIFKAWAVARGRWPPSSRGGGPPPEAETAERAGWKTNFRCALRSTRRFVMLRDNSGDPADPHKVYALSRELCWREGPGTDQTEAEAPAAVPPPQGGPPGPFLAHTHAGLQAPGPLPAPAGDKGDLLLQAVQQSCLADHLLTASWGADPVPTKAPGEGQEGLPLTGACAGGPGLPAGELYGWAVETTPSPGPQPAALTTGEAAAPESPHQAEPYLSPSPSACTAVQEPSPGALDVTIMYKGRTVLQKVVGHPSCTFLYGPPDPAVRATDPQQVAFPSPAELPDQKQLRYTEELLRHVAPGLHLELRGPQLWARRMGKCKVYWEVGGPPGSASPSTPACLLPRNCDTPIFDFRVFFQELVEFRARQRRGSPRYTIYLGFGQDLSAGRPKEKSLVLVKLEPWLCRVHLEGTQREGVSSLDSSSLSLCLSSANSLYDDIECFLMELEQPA
Method: protein-binding microarray
Form: double-stranded DNA, one strand shown
Medium: in vitro
Tested at: 250 nM
Setting: 60-bp whole probe
Added: salmon DNA 0.4 mg/ml
Relative to: random background probes
Reading: higher = stronger binding
With `GCCTAGCACTTAGGACTGCTGATCCTTTAGTGCTAGGTCTTGATTCGCTTGACGCTGCTG` the log fluorescence was -0.518 z-score.
`GCCTAGCACCGCTTTTTTTTTTTTTTTTTGTGCTAGGTCTTGATTCGCTTGACGCTGCTG` has a log fluorescence of 1.31 z-score.
With `GCCTAGCACTTAGGTAACGACTTTCGGTTAGTGCTAGTCTTGATTCGCTTGACGCTGCTG` the log fluorescence was 1.68 z-score.

Single results of other studies
With `PhoQ, residues 284 288 289 292 302 303 TTSMTC` the fold induction was 8.29 (PhoP, residues 12 14 15 18 19 SPWRL (Escherichia coli, UniProt P23836); Sort-seq, item: YFP reporter; E. coli; PhoQ-PhoP variant library, added: 10 µM Mg2+; relative to: high Mg2+ state, higher = stronger signaling).
